Measurements from different studies.
Protocols differ between the studies behind these lines. Numbers after ± are the reported error.
Organism: Escherichia coli

SMILES	assay	system	setting	quantity	value
C[C@]1(COC(=O)Cc2ccc(O)c(O)c2)[C@H](C(=O)O)N2C(=O)/C(=C/c3ccccn3)[C@H]2S1(=O)=O	broth microdilution	TG1 expressing CMY-2	16 µg/mL	MIC of ceftazidime	≤ 0.06 µg/mL
CC[C@H](C)[C@H](NC(=O)[C@H](CCCCN)NC(=O)[C@H](CCCCN)NC(=O)[C@H](CC(C)C)NC(=O)[C@H](CCCCN)NC(=O)[C@H](CCC(=O)O)NC(=O)[C@H](CCCCN)NC(=O)[C@@H](NC(=O)[C@H](CCCCN)NC(=O)[C@H](CC(N)=O)NC(=O)[C@H](CCCNC(=N)N)NC(=O)[C@H](Cc1ccccc1)NC(=O)[C@H](CCCCN)NC(=O)[C@H](CCCNC(=N)N)NC(=O)[C@H](CC(C)C)NC(=O)[C@H](CCCNC(=N)N)NC(=O)[C@H](CCCCN)NC(=O)[C@H](CCCNC(=N)N)NC(=O)[C@@H](N)CC(C)C)[C@@H](C)CC)C(=O)NCC(=O)N[C@@H](CCC(N)=O)C(=O)N[C@@H](CCCCN)C(=O)N[C@H](C(=O)N[C@@H](CCC(N)=O)C(=O)NCC(=O)N[C@@H](Cc1ccccc1)C(=O)N[C@H](C(=O)N1CCC[C@H]1C(=O)N[C@@H](CCCCN)C(=O)N[C@@H](CC(C)C)C(=O)O)C(C)C)[C@@H](C)CC	inhibition zone	TOP10		lethal concentration	1.33 µM
CCCCCCCCCCCCCCCC(=O)N[C@@H](CCCCN)C(=O)N[C@@H](CCCCN)C(=O)N(CCCCN)CC(=O)N[C@@H](CCCCN)C(=O)N[C@@H](CCCCN)C(N)=O		K12		MBC	64 µg/mL
CC(CCC(=O)[O-])C1CCC2C3CCC4CC(O)CCC4(C)C3CC(O)C12C.C[N+](C)(C)CC(O)CC(=O)O (stereo not shown)		TISTR 117	1 mg per disc, 18 to 24 h, 37 °C, 6 mm disc	inhibition zone diameter	9.5 ± 0.4 mm
CCCCCCCCCC(=O)NCC(=O)N[C@@H](CC(C)C)C(=O)N[C@@H](CC(C)C)C(=O)N[C@@H](CCCCN)C(=O)N[C@@H](CCCNC(=N)N)C(=O)N[C@H](C(=O)N[C@@H](CCCCN)C(=O)N[C@H](C(=O)N[C@@H](CC(C)C)C(=O)N[C@@H](CC(C)C)C(N)=O)[C@@H](C)O)[C@@H](C)CC	checkerboard	ATCC 25922	with: gentamicin	FIC index	0.5
Cc1cc(=O)nc(NC(=O)NCCCCCCNC(=O)NCCCCCCNC(=O)OCCOCCOCCOCCOCCOCCOCC(=O)N[C@@H](CC(C)C)C(=O)N[C@@H](CCCCN)C(=O)N[C@@H](CC(C)C)C(=O)N[C@@H](CC(C)C)C(=O)N[C@@H](CCCCN)C(=O)N[C@@H](CCCCN)C(=O)N[C@@H](CC(C)C)C(=O)N[C@@H](CC(C)C)C(=O)N[C@@H](CCCCN)C(=O)N[C@@H](CCCCN)C(=O)N[C@@H](CC(C)C)C(=O)N[C@@H](CC(C)C)C(=O)N[C@@H](CCCCN)C(=O)N[C@@H](CC(C)C)C(=O)N[C@@H](CC(C)C)C(N)=O)[nH]1		ATCC 8937, RPMI medium	24 h, 37 °C	LC99.9	1.9 to 3.7 µM
CCCC(=O)NCC(=O)N[C@@H](CC(C)C)C(=O)N[C@@H](CC(C)C)C(=O)N[C@@H](CCCCN)C(=O)N[C@@H](CCCNC(=N)N)C(=O)N[C@H](C(=O)N[C@@H](CCCCN)C(=O)N[C@H](C(=O)N[C@@H](CC(C)C)C(=O)N[C@@H](CC(C)C)C(=O)NCCCC[C@H](NC(=O)[C@H](CC(C)C)NC(=O)[C@H](CC(C)C)NC(=O)[C@@H](NC(=O)[C@H](CCCCN)NC(=O)[C@@H](NC(=O)[C@H](CCCNC(=N)N)NC(=O)[C@H](CCCCN)NC(=O)[C@H](CC(C)C)NC(=O)[C@H](CC(C)C)NC(=O)CNC(=O)CCC)[C@@H](C)CC)[C@@H](C)O)C(N)=O)[C@@H](C)O)[C@@H](C)CC	checkerboard	ATCC 25922	with: polymyxin B	FIC index	0.25
CC[C@H](C)[C@H](NC(=O)[C@H](CO)NC(=O)[C@H](CO)NC(=O)[C@H](Cc1ccccc1)NC(=O)CN)C(=O)N[C@@H](Cc1ccccc1)C(=O)N[C@@H](CCCNC(=N)N)C(=O)NCC(=O)N[C@H](C(=O)N[C@@H](C)C(=O)N[C@@H](CCCCN)C(=O)N[C@@H](Cc1ccccc1)C(=O)N[C@@H](C)C(=O)N[C@@H](CO)C(=O)N[C@@H](CCCCN)C(=O)NCC(=O)N[C@@H](CC(C)C)C(=O)NCC(=O)N[C@@H](CCCCN)C(N)=O)C(C)C		ATCC 8739	pretreated trypsin 0.5 mg/mL	MBC	> 128 µM
CC[C@H](C)[C@H](NC(=O)[C@H](CCCCN)NC(=O)[C@H](CCCCN)NC(=O)[C@H](CC(C)C)NC(=O)[C@H](CCCCN)NC(=O)[C@H](CCC(=O)O)NC(=O)[C@H](CCCCN)NC(=O)[C@@H](NC(=O)[C@H](CCCCN)NC(=O)[C@H](CC(N)=O)NC(=O)[C@H](CCCNC(=N)N)NC(=O)[C@H](Cc1ccccc1)NC(=O)[C@H](CCCCN)NC(=O)[C@H](CCCNC(=N)N)NC(=O)[C@H](CC(C)C)NC(=O)[C@H](CCCNC(=N)N)NC(=O)[C@H](CCCCN)NC(=O)[C@H](CCCNC(=N)N)NC(=O)[C@H](CC(C)C)NC(=O)[C@@H](N)CCCNC(=N)N)[C@@H](C)CC)C(=O)NCC(=O)N[C@@H](CCC(N)=O)C(=O)N[C@@H](CCCCN)C(=O)N[C@H](C(=O)N[C@@H](CCC(N)=O)C(=O)NCC(=O)N[C@@H](Cc1ccccc1)C(=O)N[C@H](C(=O)N1CCC[C@H]1C(=O)N[C@@H](CCCCN)C(=O)N[C@@H](CC(C)C)C(=O)N[C@@H](CCC(N)=O)C(=O)N1CCC[C@H]1C(=O)N[C@@H](CO)C(=O)N[C@@H](CCCCN)C(=O)N[C@@H](CCC(N)=O)C(=O)N[C@@H](CO)C(=O)O)C(C)C)[C@@H](C)CC	inhibition zone	CIP. J14b		lethal concentration	2.17 µM
CNC(=O)c1cc(C(=O)NC)cc(-c2ccc(O[C@H]3O[C@H](CO)[C@@H](O)[C@H](O)[C@@H]3O)c(C)c2)c1	biofilm formation, inhibitor	uropathogenic UTI89		IC50	0.12 µM
CCCCCCCC(=O)N[C@@H](CCCCNS(=O)(=O)c1cccc2c(N(C)C)cccc12)C(=O)N[C@H](C(=O)N[C@@H](CCN)C(=O)N[C@H]1CCNC(=O)[C@H]([C@@H](C)O)NC(=O)[C@H](CCN)NC(=O)[C@H](CCN)NC(=O)[C@H](CC(C)C)NC(=O)[C@@H](Cc2ccccc2)NC(=O)[C@H](CCN)NC1=O)[C@@H](C)O	isothermal titration calorimetry		concentration not given, 37 °C, second set of sites	entropy change	-3.3 kcal/mol
COc1ccc([C@H]2N[C@H](C(=O)O)Cc3c2[nH]c2ccccc32)c(OC)c1		BL21(DE3)	250 µM, 18 h	growth inhibition	0%
CC(C)=CCC/C(C)=C/CNCCNC1C2CC3CC(C2)CC1(O)C3 (stereo not shown)		K12		IC50	118 ± 2.2 µM
CC(C)=CCC/C(C)=C/CC/C(C)=C/CNCCOC1C2CC3CC(C2)CC1C3 (stereo not shown)	growth			IC50	0.6 µg/mL
CC[C@H](C)[C@H](NC(=O)[C@H](CO)NC(=O)[C@H](CO)NC(=O)[C@H](Cc1ccccc1)NC(=O)CN)C(=O)N[C@@H](Cc1ccccc1)C(=O)N[C@@H](CCCNC(=N)N)C(=O)NCC(=O)N[C@H](C(=O)N[C@@H](C)C(=O)N[C@@H](CCCCN)C(=O)N[C@@H](Cc1ccccc1)C(=O)N[C@@H](C)C(=O)N[C@@H](CO)C(=O)N[C@@H](CCCCN)C(=O)NCC(=O)N[C@@H](CC(C)C)C(=O)NCC(=O)N[C@@H](CCCCN)C(=O)N[C@@H](CC(=O)O)C(=O)N[C@@H](CC(C)C)C(=O)N[C@@H](C)C(=O)N[C@@H](CCCNC(=N)N)C(N)=O)C(C)C		ATCC 8739	4 × MIC	time to complete killing	30 min
CC[C@H](C)[C@H](NC(=O)[C@H](CCCCN)NC(=O)[C@H](CCCCN)NC(=O)[C@H](CC(C)C)NC(=O)[C@H](CCCCN)NC(=O)[C@H](CCC(=O)O)NC(=O)[C@H](CCCCN)NC(=O)[C@@H](NC(=O)[C@H](CCCCN)NC(=O)[C@H](CC(N)=O)NC(=O)[C@H](CCCNC(=N)N)NC(=O)[C@H](Cc1ccccc1)NC(=O)[C@H](CCCCN)NC(=O)[C@H](CCCNC(=N)N)NC(=O)[C@H](CC(C)C)NC(=O)[C@H](CCCNC(=N)N)NC(=O)[C@H](CCCCN)NC(=O)[C@H](CCCNC(=N)N)NC(=O)[C@H](CC(C)C)NC(=O)[C@@H](N)CC(C)C)[C@@H](C)CC)C(=O)NCC(=O)N[C@@H](CCC(N)=O)C(=O)N[C@@H](CCCCN)C(=O)N[C@H](C(=O)N[C@@H](CCC(N)=O)C(=O)NCC(=O)N[C@@H](Cc1ccccc1)C(=O)N[C@H](C(=O)N1CCC[C@H]1C(=O)N[C@@H](CCCCN)C(=O)N[C@@H](CC(C)C)C(=O)N[C@H](C(=O)N1CCC[C@H]1C(=O)N[C@@H](CCCNC(=N)N)C(=O)N[C@H](C(=O)N[C@@H](CCC(=O)O)C(=O)N[C@@H](CO)C(=O)O)[C@@H](C)O)C(C)C)C(C)C)[C@@H](C)CC	inhibition zone	DH5α		lethal concentration	2.21 µM
